Measured values gathered from unrelated publications.
Protocols differ between the studies behind these lines. ± marks the error that the study gave.
Chain of UniProt Q9Y6E0 (whole entry, looked up): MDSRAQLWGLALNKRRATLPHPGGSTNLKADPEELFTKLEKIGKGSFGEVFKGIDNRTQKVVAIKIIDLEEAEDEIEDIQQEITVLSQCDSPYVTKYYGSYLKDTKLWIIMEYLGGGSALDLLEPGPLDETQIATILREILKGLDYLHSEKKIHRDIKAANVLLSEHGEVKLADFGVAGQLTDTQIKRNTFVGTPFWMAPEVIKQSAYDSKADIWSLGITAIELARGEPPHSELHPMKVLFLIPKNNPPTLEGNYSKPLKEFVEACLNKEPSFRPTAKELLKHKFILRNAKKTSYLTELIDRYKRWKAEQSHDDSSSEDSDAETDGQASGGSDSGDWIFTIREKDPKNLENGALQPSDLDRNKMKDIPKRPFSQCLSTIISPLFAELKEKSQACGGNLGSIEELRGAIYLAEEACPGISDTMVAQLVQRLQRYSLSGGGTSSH

Cc1sc2c(c1C)C(c1ccc(Cl)cc1)=N[C@@H](CC(=O)NCC(=O)N1CCC3(CCC(C(=O)N4CCN(C(=O)c5cc(Cc6n[nH]c(=O)c7ccccc67)ccc5F)CC4)CC3)CC1)c1nnc(C)n1-2 — cells in G2 phase (NCI-H82; 100 nM, 24 h): 11%
COc1nc(Nc2nc(O)c3ccccc3n2)nc2ccc(C)cc12 — Emax (LDR; silenced CMV-GFP reporter derepression, qHTS): 44%
CN1CCCNC(=O)c2cccc(c2)C(=O)NCCCN(C)CCCNc2cccc3c2C(=O)c2cccc(c2C3=O)NCCC1 — log2 fold change (SAS; RNA-Seq, item: SMG7 mRNA; 1 µM, 6 h; baseline: untreated cells): -0.549
O=C(C[Se]C(=O)c1ccc2ccccc2c1)Nc1cccc(C(F)(F)F)c1 — mean growth percent (NCI60 renal subpanel; cell growth; 10 µM, 48 h, one-dose): -82.8%
Nc1ncc(-c2cc(-c3cnn(CC(F)(F)F)c3)ncc2F)nc1C(=O)NC1CNCC(F)C1 (stereo not shown) — remaining binding (WEE1; KINOMEscan; 1 µM; baseline: DMSO control): 86%
C=C(NC(=O)c1csc(-c2nc3c(cc2O)-c2nc(cs2)C(=O)NC(C(C)O)C(=O)NC(=C(C)OC)c2nc(cs2)C(=O)NC2c4nc(cs4)C(=O)NC(COC(=O)c4c5c6c(cccc6n4O)COC(=O)C(OC4CC(C)(O)C(N(C)C)C(C)O4)C2OC5)c2nc-3cs2)n1)C(N)=O (stereo not shown) — clearance (cynomolgus monkey, female, plasma; intravenous infusion, 3 mg/kg, multiple doses, day 7): 2.01 mL/min/kg
CC(=O)NCCCN(C)CCCNc1cccc2c1C(=O)c1cccc(NCCCN(C)CCCNC(C)=O)c1C2=O — log2 fold change (SAS; RNA-Seq, item: MAP3K6 mRNA; 1 µM, 24 h; baseline: untreated cells): 0.939
COc1cc(-c2cc3c(N4CCC[C@H](C(=O)NCc5ccc(OC(F)(F)F)cc5)C4)ncnc3[nH]2)cc(OC)c1OC — inhibition (NCI-H2228; cell growth or viability, MTT; 0.2 µg/mL, 72 h): 57.6%
CSC(=S)N/N=C(\C)c1ccc(Nc2nnc(-c3ccc(Cl)cc3)c3ccccc23)cc1 — viability (HepG2; cell growth or viability, MTT; 0.625 µM, 24 h): 6.7%
CCN(C(=O)c1cc(F)ccc1Oc1nncnc1N1CCC2(C1)CN([C@H](CCCN(C)CCOC)C(C)C)C2)C(C)C — GI50 (SNB-75; brain; 72 h): > 10 µM
COC1CN([C@H]2CC[C@H]([C@@]3(C)Oc4c(Cl)cc(C(=O)NCc5c(SC)cc(C)[nH]c5=O)c(C)c4O3)CC2)C1 — log2 fold change (RNA-seq, item: AGPAT4 mouse homolog; mouse, HT-1376 xenograft, whole blood; dose not given; baseline: vehicle): 0.606
Oc1c(/N=N/c2ccccn2)ccc2ccccc12 — EC50 (LDR; silenced CMV-GFP reporter derepression, qHTS): 10 µM
COC(=O)c1cc(NC2=NC(=O)C(=Cc3ccc(C)cc3)S2)ccc1OC(C)=O — metabolite level (MCF7; GC-MS, item: Scyllo-Inositol; 1 µM; baseline: DMSO): 0.03 fold change
CO[C@@H]1[C@@H](OC(N)=O)[C@@H](O)[C@H](Oc2ccc3c(O)c(NC(=O)c4ccc(O)c(CC=C(C)C)c4)c(=O)oc3c2C)OC1(C)C — colony survival (HCT-116 BRCA2 wild-type; 50 µM, mean of replicates A, B; baseline: untreated): 88.5%
Cc1nn(C)cc1-c1cc2c(N3CCC[C@H](C(=O)NCc4ccc(OC(F)(F)F)cc4)C3)ncnc2[nH]1 — inhibition (NCI-H2228; cell growth or viability, MTT; 0.2 µg/mL, 72 h): 66.2%
C=CC(=O)N1[C@@H](c2ccc3c(c2)OCO3)c2[nH]c3ccccc3c2C[C@H]1C(=O)N1CCN(C)CC1 — relative co-enrichment (human cyclin E1 wild type-3xFLAG:CDK2; co-IP with TMT proteomics, item: CDK2; concentration not given, P24941; baseline: wild type DMSO): 99%
Cc1n[nH]c(C)c1-c1cc2c(N3CCC[C@H](C(=O)NCc4ccc(OC(F)(F)F)cc4)C3)ncnc2[nH]1 — inhibition (NCI-H2228; cell growth or viability, MTT; 0.2 µg/mL, 72 h): 71.6%
Cc1nn(-c2cccc(N)c2)c(=O)c2cnc(Nc3ccc(N4CCNCC4)cc3)nc12 — IC50 (Serine/threonine-protein kinase 24 (STK24, Homo sapiens, UniProt Q9Y6E0); enzyme activity, inhibitor): 3.11 µM
C=CC(=O)Nc1cccc(Cn2ncc3cnc(Nc4cnn(CCOC)c4)nc32)c1 — percent of control (YANK2 human; binding, KINOMEscan; 100 nM; lower = stronger binding): 100%
COc1cc(O)ccc1CCC(c1ccc(O)cc1)c1cc2c(c(C)c1O)OC(c1ccc(O)cc1)CC2 (mixture of isomers) — amount (item: docosahexaenoic acid; human whole blood; 0.3 µM, added: Escherichia coli): 38700 ± 3520 pg/mL blood
CCN(CC)CC(=O)Nc1cccc(-n2cc(-c3ccc4ccc(-c5cn(-c6cccc(NC(=O)CN(CC)CC)c6)nn5)cc4c3)nn2)c1 — fold regulation (RCC4; PCR angiogenesis array, item: S1PR1; 5 x IC50, 4 h, normoxia; baseline: untreated): 1.21
O=C(C[Se]C(=O)C12CC3CC(CC(C3)C1)C2)Nc1cccc(C(F)(F)F)c1 — GI50 (NCI60 renal subpanel; cell growth, inhibitor; five-dose): 3.48 µM
Cc1cc(NC2CCN(C)CC2)ccc1-c1cc2c(N3CCC[C@H](C(=O)NCc4ccc(Cl)nc4)C3)ncnc2[nH]1 — inhibition (NCI-H2228; cell growth or viability, MTT; 0.2 µg/mL, 72 h): 18.9%
CC(C)c1ccc(N(C)c2ccc3c(c2)OCC[C@H]3CNc2cnccc2C(=O)O)cc1 — IC50 (CAPAN-1; cell growth or viability, ATP luminescence; 7 days): 0.116 µM
CNS(=O)(=O)Nc1nccc(Cc2c(C)c3ccc(Oc4ncccc4F)cc3oc2=O)c1F — IC50 (WM-115; cell viability; 7 days): 0.0024 µM
Cc1ncsc1-c1ccc(C(C)NC(=O)C2CC(O)CN2C(=O)C(NC(=O)CCCCCCCCCCN2CCCC(Nc3ncc(Cl)c(Nc4ccccc4S(=O)(=O)C(C)C)n3)C2)C(C)(C)C)cc1 (stereo not shown) — log2 fold change (22Rv1; RNA-seq, item: POLI mRNA; concentration not given; baseline: DMSO): -1.17
CC(C)C[C@H](NC(=O)[C@@H](CCCCNC(=O)[C@@H](Cc1ccccc1)NC(=O)CCCCCNC(=O)CN1CCN(CC(=O)O)CCN(CC(=O)O)CCN(CC(=O)O)CC1)NC(=O)[C@H](Cc1ccc(O)cc1)NC(=O)[C@H](CO)NC(=O)[C@H](Cc1c[nH]c2ccccc12)NC(=O)[C@H](Cc1c[nH]cn1)NC(=O)[C@@H]1CCC(=O)N1)C(=O)N[C@@H](CCCNC(=N)N)C(=O)N1CCC[C@H]1C(=O)NCC(N)=O [indium-111 labelled] — tissue uptake (female athymic nude mice, blood; intravenous, 0.037 MBq, 0.5 h): 1.35 ± 0.37 %ID/g
CC(C)OCCOCc1ccc(OCC(O)CN(N=O)C(C)C)cc1 (stereo not shown) — revertant fold increase (Salmonella typhimurium; Ames test; TA100; 1580 µg/plate, without metabolic activation; baseline: solvent control): 1 fold

Some of these lines once more:
CO[C@@H]1[C@@H](OC(N)=O)[C@@H](O)[C@H](Oc2ccc3c(O)c(NC(=O)c4ccc(O)c(CC=C(C)C)c4)c(=O)oc3c2C)OC1(C)C — colony survival (HCT-116 BRCA2 wild-type; 50 µM, mean of replicates A, B; baseline: untreated): 88.5%
Cc1nn(C)cc1-c1cc2c(N3CCC[C@H](C(=O)NCc4ccc(OC(F)(F)F)cc4)C3)ncnc2[nH]1 — inhibition (NCI-H2228; cell growth or viability, MTT; 0.2 µg/mL, 72 h): 66.2%
